# Measured values pooled from the literature.
# Numbered parts are unrelated; each lists some results of a single study.

# Study 1 — method: universal PBM; molecule type: double-stranded DNA, one strand shown; matrix: in vitro; concentration: 600 nM; direction: higher = stronger binding
# Target: Sal-like protein 4, full length isoform A (SALL4, Homo sapiens, UniProt Q9UJQ4, residues 1-1053)
# UniProt Q9UJQ4, sequence (whole entry, looked up): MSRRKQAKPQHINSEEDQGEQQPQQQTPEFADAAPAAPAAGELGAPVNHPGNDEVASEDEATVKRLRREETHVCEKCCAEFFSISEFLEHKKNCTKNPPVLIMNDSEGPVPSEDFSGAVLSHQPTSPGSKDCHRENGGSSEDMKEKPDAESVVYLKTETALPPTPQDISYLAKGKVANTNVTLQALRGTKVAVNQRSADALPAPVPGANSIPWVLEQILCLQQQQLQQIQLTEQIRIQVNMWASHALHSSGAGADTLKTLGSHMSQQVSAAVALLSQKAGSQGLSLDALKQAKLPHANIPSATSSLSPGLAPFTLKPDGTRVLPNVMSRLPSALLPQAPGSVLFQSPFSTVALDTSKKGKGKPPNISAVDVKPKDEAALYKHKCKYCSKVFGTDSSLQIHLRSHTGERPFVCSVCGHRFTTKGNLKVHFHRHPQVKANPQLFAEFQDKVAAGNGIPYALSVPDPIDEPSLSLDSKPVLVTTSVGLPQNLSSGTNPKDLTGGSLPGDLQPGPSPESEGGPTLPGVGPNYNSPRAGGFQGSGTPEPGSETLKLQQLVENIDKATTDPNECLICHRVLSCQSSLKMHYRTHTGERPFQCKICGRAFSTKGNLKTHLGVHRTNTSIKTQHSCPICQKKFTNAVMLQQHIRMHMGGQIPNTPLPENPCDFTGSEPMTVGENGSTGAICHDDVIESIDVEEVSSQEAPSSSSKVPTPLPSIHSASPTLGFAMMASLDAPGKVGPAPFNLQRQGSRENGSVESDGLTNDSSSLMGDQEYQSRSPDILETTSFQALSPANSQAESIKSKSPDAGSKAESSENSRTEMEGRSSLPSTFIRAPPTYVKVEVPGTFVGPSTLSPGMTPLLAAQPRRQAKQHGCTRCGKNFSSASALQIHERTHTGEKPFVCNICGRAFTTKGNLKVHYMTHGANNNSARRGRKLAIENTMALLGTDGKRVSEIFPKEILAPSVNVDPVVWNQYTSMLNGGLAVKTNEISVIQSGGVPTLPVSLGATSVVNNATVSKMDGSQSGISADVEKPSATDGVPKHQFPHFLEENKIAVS
# Setting: 8-mer, flanks averaged, mean of replicates
Oligonucleotide,E-score
CACTGTTC,-0.0414
AAATTCTC,0.0423
ATAGAGTG,0.0341
GCCTAGAC,-0.18
GACTCCCA,-0.167
CCCTACAA,0.0812
AAGGACTT,-0.114
AGTTCAAA,0.132
CCGTTAGA,0.0767
GGCCCTAA,-0.177
CAGAGGGC,-0.221
TTACTGAA,0.24
ACCTCAAT,0.0375
ACGCCTTG,-0.167
CCGACGCC,-0.342
AGAGAGAT,0.103
GTGGGATA,0.0884
AGCACGAT,-0.00017
GCGGTACC,-0.273
GCAGGACA,-0.133
ACCTCTGG,-0.0543

# Study 2 — method: protein-binding microarray; molecule type: double-stranded DNA, one strand shown; matrix: in vitro; concentration: not given; direction: higher = stronger binding
# Target: Hepatocyte nuclear factor 3-beta, forkhead domain (FOXA2, Homo sapiens, UniProt Q9Y261, residues 142-269)
# Setting: k-mer, scored over probes, only values ≥0.25
# Construct (chain): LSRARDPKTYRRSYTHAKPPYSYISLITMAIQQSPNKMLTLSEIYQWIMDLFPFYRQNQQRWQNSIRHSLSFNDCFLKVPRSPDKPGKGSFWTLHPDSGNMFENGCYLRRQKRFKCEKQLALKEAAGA
Oligonucleotide,E-score
AATACACC,0.319
ATTCCATA,0.28
ATAAGCAA,0.27
GATAAGTA,0.265
ATGTGTCA,0.282
CTAATAAA,0.26
CCATATAC,0.306
GCAAACTA,0.25
TATGTGAA,0.277
GTTGTATA,0.296
GTGTTTAA,0.279
CTATTTGC,0.256
CACAAATA,0.38
ATAGCGAA,0.268
GACAACAA,0.289
GTTAACTA,0.255
ATAACATC,0.326
ATTCATTC,0.254
ATGACCCA,0.256
AGAATAAA,0.281
ACTTAAAC,0.263
AGTATTCA,0.255
AATGTGTG,0.344
ATCATATG,0.324
AATAAATA,0.353

# Study 3 — method: RNA Bind-n-Seq; molecule type: RNA; matrix: in vitro; concentration: 200 nM; setting: whole 134-nt RNA, ends assumed; together with: 150 mM KCl; relative to: input library; direction: higher = stronger binding
# Target: Ras GTPase-activating protein-binding protein 1, full length (G3BP1, Homo sapiens, UniProt Q13283)
# UniProt Q13283, sequence (whole entry, looked up): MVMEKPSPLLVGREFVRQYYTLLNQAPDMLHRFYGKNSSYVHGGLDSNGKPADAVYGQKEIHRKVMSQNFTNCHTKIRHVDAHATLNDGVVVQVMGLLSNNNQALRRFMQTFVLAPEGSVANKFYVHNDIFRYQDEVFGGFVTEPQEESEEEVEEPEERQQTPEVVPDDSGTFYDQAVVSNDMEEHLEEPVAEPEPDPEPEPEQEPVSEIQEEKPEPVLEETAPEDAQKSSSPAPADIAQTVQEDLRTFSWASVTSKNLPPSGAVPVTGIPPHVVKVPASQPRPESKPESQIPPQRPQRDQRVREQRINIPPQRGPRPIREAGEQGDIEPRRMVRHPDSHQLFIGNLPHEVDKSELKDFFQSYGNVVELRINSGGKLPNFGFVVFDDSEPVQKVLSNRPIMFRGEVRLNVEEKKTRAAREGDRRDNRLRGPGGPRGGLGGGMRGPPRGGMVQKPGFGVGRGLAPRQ
# All sequences stand within: GGGAGUUCUACAGUCCGACGAUC … UGGAAUUCUCGGGUGUCAAGG
Oligonucleotide,log2 enrichment
CUCAAGUCCUGUGCUACACAUCGUAUGUACCGAAUCGGAAAGGUUUUUGGUGGAAAGUAUUAUGUUACGCCGUUCGGAUCUGCACUUCCA,-0.651
ACCAUGCAGGUGGGCAUCUUUGGGAAGUGGGGCAAGGGGGGGAUAGGGACGGGGGUAACACUUUGGGAACAGGUGGUCCCAGGUCGUUUC,1.28
GUCCUGUGCUACACAUCGUAUGUACCGAAUCGGCCCCCCGGCCCCCCGGGCCCCCCGGAAAGUAUUAUGUUACGCCGUUCGGAUCUGCAC,0.0208
GUCCUGUGCUACACAUCGUAUGUACCGAAUCGGGAAAAAAAGGGAGGGUUUUUUUGGGAAAGUAUUAUGUUACGCCGUUCGGAUCUGCAC,-0.168
UGGCCCUGGUGGCAUGCGGGGAGGAAGAGGUGGCCUCAUGAAUCGUGGUGGUCCCGGUGGAAUGUUCAGAGGUGGCCGUGGUGGAGACAG,0.0316
CAAGUCCUGUGCUACACAUCGUAUGUACCGAAUCGGGAAAAAGGGAGGGUUUGGGAAAGUAUUAUGUUACGCCGUUCGGAUCUGCACUUC,0.639
GCAGGAAGUAAAAACAAAUGGAAAUGCUUCGGAUAGUGGCAGGGGUGGGGGUUGGUAAGGAAAGGGUGGGAUGGGAGUGGGUAAAGAGUU,0.982
CCCAUUCCAAGAUUUGCUGUUGGCAUUGUAAUAGGAAGAAAUGGAGAGAUGAUCAAAAAAAUACAAAAUGAUGCUGGUGUUCGCAUUCAG,-0.184
CUCAAGUCCUGUGCUACACAUCGUAUGUACCGAAUCGGCCGGCCGGGGCCGGGAAAGUAUUAUGUUACGCCGUUCGGAUCUGCACUUCCA,-0.195

# Study 4 — method: RNA Bind-n-Seq; molecule type: RNA; matrix: in vitro; concentration: 365 nM; relative to: no-protein control; direction: higher = stronger binding
# Target: RNA binding protein fox-1 homolog 2, RRM domain, GST-SBP tag (RBFOX2, Homo sapiens, UniProt O43251-10, residues 100-194)
# Setting: natural RNA segment, single round, ends assumed
# All sequences stand within: GGGAGUUCUACAGUCCGACGAUC … UGGAAUUCUCGGGUGCCAA
# Target sequence (chain): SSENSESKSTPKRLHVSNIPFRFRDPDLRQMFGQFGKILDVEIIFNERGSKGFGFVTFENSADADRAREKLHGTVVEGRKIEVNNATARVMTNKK
Oligonucleotide,RBNS enrichment (R)
GGCUCCCAAGGUUCUGCAGGAAAGCAGACCUGCACACAGAUCCCGUGGCUGCUGAAAAGACACAUGUUCACAUGGAGACAAACCAAGCUGCUCGCUCUCGGCUGUAUGCA,2.86
GAAGAACCUGGCGAAGGAGAAGCUGGCAGUGUGAAGCGGAUGACGCCUGACAUUUUACGGGAUCAAAGUGGGUCUGUGGCAUUGCUGCUUCGUGAAUGUGUGUGGACUCU,4.1
CCUGGCCUCUGCAGGGAACUGCAGCACACACUGCACUCCCACCUGCUCUUGCCGCCAGCAUUGCACCAGCAGUCCAGAAUUCCUGCCUGACAACCCGUGUUUCCUUUAUU,0.625
CUGCGAAGUUUCGUUGGAUUUUAUUUUAUGUCCUUCAGAGCACCCUCCCCCACCCACUAGGGUCCAGAAGAGCAAUGGAGGAAGUGACAGCUAAUGGUGCAGUUCUAAAU,0.186
CUGCCCCCAGCUUUGCUUCUCACCAGCUCAUUAGGGCUCCCAGGUUAAAGUCCUUCAGUAUUUAUGGCCACCCCCACUCCAUGUGAGUCCACUUGGCUCUGUCCUCCCCA,0.692
AUGUUUGGUUCAUUUGAAAUUUUGGAAUAAUUGUGAAUGUAUGAUAUUGUAAAAUUAAAAAAAUAUAUAGAACUGUCCCUUAAUCAUAUUGACGUUAUAACUGGGCUUCA,1.71
AGAGUCUCGCCCGAUCCCAUCGGCAUCCCGGGGAGGGCCCGGGAGCCUCCGUCAACCGUCCUCUAAUCCAGAGUUUACUCCACCUGCCGCACUUAGCAGGGGGACGGGAC,0.311
GUUGAAGAUCUAUCUAUGCAUUUUUUUACACUUACACAUAAACUGGUAUUUUCGAACAAUAGGAAACUAUUUUUUCUCCUUUUUUUACAGUUUUAGUACGUAUCUGGCUU,0.652

# Repeated from above (study 4):
Oligonucleotide,RBNS enrichment (R)
CCUGGCCUCUGCAGGGAACUGCAGCACACACUGCACUCCCACCUGCUCUUGCCGCCAGCAUUGCACCAGCAGUCCAGAAUUCCUGCCUGACAACCCGUGUUUCCUUUAUU,0.625
AUGUUUGGUUCAUUUGAAAUUUUGGAAUAAUUGUGAAUGUAUGAUAUUGUAAAAUUAAAAAAAUAUAUAGAACUGUCCCUUAAUCAUAUUGACGUUAUAACUGGGCUUCA,1.71
GAAGAACCUGGCGAAGGAGAAGCUGGCAGUGUGAAGCGGAUGACGCCUGACAUUUUACGGGAUCAAAGUGGGUCUGUGGCAUUGCUGCUUCGUGAAUGUGUGUGGACUCU,4.1
CUGCCCCCAGCUUUGCUUCUCACCAGCUCAUUAGGGCUCCCAGGUUAAAGUCCUUCAGUAUUUAUGGCCACCCCCACUCCAUGUGAGUCCACUUGGCUCUGUCCUCCCCA,0.692
AGAGUCUCGCCCGAUCCCAUCGGCAUCCCGGGGAGGGCCCGGGAGCCUCCGUCAACCGUCCUCUAAUCCAGAGUUUACUCCACCUGCCGCACUUAGCAGGGGGACGGGAC,0.311
